Measurements from different studies.
A part holds a random share of what one study measured. Several values in a cell are separate wells, animals, samples, runs or records.
Sequence of UniProt Q8WXR4 (whole entry, looked up): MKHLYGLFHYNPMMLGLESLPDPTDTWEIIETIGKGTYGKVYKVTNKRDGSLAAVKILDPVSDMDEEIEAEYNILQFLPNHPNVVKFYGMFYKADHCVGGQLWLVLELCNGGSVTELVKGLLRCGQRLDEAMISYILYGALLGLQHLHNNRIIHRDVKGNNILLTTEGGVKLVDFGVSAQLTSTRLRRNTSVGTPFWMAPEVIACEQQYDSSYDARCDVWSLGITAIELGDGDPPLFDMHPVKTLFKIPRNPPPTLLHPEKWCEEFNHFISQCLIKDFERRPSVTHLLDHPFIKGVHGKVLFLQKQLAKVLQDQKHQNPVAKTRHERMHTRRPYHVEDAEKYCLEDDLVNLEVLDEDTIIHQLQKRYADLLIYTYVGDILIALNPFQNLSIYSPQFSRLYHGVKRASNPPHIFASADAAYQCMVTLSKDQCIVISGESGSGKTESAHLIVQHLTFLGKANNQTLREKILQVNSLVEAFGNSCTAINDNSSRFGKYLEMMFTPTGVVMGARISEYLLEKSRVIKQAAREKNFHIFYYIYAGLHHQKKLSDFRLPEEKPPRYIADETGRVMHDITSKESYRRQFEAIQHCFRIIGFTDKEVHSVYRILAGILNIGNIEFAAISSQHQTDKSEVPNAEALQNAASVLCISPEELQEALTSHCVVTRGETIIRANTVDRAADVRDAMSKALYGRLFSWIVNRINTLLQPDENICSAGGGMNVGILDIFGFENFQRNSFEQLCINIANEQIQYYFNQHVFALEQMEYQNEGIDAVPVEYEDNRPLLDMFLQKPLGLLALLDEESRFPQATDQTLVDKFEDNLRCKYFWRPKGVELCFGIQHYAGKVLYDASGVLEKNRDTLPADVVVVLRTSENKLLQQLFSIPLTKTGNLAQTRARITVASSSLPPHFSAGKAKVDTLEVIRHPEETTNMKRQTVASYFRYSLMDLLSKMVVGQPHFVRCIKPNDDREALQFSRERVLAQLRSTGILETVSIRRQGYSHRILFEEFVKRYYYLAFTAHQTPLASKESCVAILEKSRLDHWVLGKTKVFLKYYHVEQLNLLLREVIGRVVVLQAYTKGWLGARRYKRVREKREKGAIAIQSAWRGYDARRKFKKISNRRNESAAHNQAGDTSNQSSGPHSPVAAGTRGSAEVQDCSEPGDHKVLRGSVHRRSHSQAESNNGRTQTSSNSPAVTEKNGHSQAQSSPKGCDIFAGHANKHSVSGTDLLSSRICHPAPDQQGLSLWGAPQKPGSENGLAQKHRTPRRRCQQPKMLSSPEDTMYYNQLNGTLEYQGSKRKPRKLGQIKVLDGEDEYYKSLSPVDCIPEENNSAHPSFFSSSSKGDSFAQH
Sequence of UniProt Q9Y5S2 (whole entry, looked up): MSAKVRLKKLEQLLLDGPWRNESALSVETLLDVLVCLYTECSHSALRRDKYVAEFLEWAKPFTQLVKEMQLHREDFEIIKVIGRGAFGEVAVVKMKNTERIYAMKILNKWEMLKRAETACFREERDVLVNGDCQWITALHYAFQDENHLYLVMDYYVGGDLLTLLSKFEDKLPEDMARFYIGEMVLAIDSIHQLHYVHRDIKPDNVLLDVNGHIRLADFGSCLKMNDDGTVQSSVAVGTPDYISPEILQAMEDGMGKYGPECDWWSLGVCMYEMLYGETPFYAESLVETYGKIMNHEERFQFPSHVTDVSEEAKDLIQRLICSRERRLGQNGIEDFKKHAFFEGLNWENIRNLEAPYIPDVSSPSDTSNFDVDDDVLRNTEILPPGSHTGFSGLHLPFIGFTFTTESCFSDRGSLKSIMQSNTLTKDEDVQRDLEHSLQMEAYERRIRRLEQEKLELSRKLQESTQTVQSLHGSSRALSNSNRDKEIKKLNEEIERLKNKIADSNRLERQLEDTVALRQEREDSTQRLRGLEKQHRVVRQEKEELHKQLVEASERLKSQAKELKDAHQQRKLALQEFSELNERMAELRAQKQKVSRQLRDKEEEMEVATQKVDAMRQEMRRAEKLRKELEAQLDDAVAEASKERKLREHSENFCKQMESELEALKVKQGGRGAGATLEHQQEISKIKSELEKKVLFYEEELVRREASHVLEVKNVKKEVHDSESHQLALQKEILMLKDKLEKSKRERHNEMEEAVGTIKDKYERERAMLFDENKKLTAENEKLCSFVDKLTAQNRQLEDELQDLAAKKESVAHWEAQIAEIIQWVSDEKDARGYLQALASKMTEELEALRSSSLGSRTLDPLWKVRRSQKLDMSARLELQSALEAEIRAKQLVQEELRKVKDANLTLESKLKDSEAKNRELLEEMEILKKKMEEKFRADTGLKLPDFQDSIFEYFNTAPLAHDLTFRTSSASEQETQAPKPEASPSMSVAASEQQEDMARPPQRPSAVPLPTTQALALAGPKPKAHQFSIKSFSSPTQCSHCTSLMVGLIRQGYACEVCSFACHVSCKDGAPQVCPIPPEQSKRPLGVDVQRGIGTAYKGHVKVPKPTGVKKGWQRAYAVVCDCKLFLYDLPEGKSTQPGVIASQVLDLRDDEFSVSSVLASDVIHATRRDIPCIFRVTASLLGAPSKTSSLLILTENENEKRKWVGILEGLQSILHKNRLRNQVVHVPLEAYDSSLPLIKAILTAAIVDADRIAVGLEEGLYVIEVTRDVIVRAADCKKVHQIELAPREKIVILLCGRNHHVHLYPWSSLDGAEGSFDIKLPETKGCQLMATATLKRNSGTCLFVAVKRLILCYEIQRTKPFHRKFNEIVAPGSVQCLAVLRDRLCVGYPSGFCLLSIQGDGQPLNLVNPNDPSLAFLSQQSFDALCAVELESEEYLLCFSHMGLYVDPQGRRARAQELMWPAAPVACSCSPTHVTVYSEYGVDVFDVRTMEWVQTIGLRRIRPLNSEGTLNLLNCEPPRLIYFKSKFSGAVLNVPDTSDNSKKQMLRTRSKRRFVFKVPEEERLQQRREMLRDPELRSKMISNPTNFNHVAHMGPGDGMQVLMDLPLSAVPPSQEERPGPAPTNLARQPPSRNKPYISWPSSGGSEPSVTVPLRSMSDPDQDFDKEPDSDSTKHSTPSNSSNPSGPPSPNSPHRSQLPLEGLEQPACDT
Sequence of UniProt Q13233 (whole entry, looked up): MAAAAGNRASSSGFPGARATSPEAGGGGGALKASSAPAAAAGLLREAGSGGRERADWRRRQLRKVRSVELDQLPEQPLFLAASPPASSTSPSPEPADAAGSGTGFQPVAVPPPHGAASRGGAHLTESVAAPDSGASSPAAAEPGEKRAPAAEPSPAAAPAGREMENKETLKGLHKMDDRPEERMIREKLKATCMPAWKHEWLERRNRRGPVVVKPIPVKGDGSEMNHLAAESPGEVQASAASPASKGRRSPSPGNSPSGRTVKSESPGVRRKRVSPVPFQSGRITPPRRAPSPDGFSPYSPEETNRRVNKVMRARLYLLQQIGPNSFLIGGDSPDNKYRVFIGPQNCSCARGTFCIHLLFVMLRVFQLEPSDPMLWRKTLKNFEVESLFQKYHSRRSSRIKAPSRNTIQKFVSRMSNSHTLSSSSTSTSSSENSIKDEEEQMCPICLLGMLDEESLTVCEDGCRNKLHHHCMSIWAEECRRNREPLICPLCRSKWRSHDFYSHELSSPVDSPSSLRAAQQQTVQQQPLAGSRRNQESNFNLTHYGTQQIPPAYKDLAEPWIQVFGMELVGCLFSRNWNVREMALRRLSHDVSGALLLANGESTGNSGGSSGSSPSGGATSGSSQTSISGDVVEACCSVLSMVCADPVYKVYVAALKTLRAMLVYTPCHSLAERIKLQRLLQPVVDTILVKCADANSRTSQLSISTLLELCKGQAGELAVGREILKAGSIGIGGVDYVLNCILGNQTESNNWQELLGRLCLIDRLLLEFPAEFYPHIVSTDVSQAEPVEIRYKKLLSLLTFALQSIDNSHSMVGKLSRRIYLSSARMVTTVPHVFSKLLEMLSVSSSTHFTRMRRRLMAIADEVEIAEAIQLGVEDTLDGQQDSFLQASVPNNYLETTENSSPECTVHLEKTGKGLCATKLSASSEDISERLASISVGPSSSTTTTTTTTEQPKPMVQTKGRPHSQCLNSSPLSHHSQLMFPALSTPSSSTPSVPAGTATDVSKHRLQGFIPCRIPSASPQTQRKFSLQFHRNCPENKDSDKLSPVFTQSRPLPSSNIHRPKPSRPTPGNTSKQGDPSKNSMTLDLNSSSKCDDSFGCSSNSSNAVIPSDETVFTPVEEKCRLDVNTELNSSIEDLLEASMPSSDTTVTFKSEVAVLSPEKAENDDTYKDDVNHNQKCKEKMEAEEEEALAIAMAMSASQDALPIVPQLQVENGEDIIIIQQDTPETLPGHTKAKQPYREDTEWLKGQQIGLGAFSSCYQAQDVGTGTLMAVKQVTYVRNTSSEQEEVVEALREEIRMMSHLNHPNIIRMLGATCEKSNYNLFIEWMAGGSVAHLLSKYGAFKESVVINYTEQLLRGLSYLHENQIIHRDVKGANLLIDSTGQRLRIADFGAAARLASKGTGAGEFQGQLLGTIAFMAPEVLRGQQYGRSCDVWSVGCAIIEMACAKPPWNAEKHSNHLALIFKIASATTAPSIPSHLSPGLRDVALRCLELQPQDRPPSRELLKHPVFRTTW
Sequence of UniProt P28482 (whole entry, looked up): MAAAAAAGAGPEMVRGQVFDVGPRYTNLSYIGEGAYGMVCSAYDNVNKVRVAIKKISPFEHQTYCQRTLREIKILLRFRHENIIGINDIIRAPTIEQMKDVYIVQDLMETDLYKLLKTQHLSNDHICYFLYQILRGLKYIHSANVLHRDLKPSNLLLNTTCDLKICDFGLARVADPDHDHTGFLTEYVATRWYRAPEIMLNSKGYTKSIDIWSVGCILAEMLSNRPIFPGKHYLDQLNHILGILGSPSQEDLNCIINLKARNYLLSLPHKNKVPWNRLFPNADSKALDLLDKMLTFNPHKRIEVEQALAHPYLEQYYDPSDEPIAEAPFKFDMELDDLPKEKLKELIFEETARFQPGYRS

Sample 1
Structure (SMILES): Nc1c(C(=O)NCc2ccc(C(=O)NCCCC3CCCCC3)cc2)cnn1-c1ccccc1
Concentration: 0.1 µM
Serine/threonine-protein kinase TAO2 (TAOK2, Homo sapiens, UniProt Q9UL54); cell-free assay, competition with immobilised ligand — remaining binding: 100%.
For Calcium/calmodulin-dependent protein kinase type 1D (CAMK1D, Homo sapiens, UniProt Q8IU85); cell-free assay, competition with immobilised ligand: remaining binding read 93%.
For Hormonally up-regulated neu tumor-associated kinase (HUNK, Homo sapiens, UniProt P57058); cell-free assay, competition with immobilised ligand: remaining binding read 100%.
The remaining binding was 96% (Receptor-interacting serine/threonine-protein kinase 2 (RIPK2, Homo sapiens, UniProt O43353); cell-free assay, competition with immobilised ligand).
The remaining binding was 100% (AP2-associated protein kinase 1 (AAK1, Homo sapiens, UniProt Q2M2I8); binding).
The remaining binding was 100% (Serine/threonine-protein kinase WNK2 (WNK2, Homo sapiens, UniProt Q9Y3S1); cell-free assay, competition with immobilised ligand).
It gave 96% for remaining binding (Mitogen-activated protein kinase kinase kinase 1 (MAP3K1, Homo sapiens, UniProt Q13233); cell-free assay, competition with immobilised ligand).

Sample 2
SMILES: C=CC(=O)N1CCC[C@@H](n2nc(-c3ccc(Oc4ccccc4)cc3)c3c(N)ncnc32)C1
Mode: inhibitor
Concentration: 1 µM
Homeodomain-interacting protein kinase 4 (HIPK4, Homo sapiens, UniProt Q8NE63); enzyme activity — inhibition: 5%.
cGMP-dependent protein kinase 1 (PRKG1, Homo sapiens, UniProt Q13976); enzyme activity — inhibition: 0%.
Serine/threonine-protein kinase 17B (STK17B, Homo sapiens, UniProt O94768); enzyme activity — inhibition: 10%.
The inhibition was 95% (Tyrosine-protein kinase Fgr (FGR, Homo sapiens, UniProt P09769)).
It gave 46% for inhibition (Mitogen-activated protein kinase 10 (MAPK10, Homo sapiens, UniProt P53779); enzyme activity).

Sample 3
Compound: O=C(Nc1ccc(Cl)cc1)c1ccccc1NCc1ccncc1
Effect on: enzyme activity
Mode: inhibitor
Concentration: 0.5 µM
Relative to: control
Calcium/calmodulin-dependent protein kinase type 1B (PNCK, Homo sapiens, UniProt Q6P2M8) — remaining activity: 94.8%.
The remaining activity was 92.7% (Serine/threonine-protein kinase MARK2 (MARK2, Homo sapiens, UniProt Q7KZI7)).
The remaining activity was 98.5% (Serine/threonine-protein kinase PLK3 (PLK3, Homo sapiens, UniProt Q9H4B4)).
The remaining activity was 94.7% (Mitogen-activated protein kinase 1 (MAPK1, Homo sapiens, UniProt P28482)).
For Serine/threonine-protein kinase tousled-like 2 (TLK2, Homo sapiens, UniProt Q86UE8): remaining activity read 97.3%.
For Serine/threonine-protein kinase PAK 3 (PAK3, Homo sapiens, UniProt O75914): remaining activity read 95.5%.
It gave 79.9% for remaining activity (Serine/threonine-protein kinase MRCK beta (CDC42BPB, Homo sapiens, UniProt Q9Y5S2)).
The remaining activity was 101% (Calcium/calmodulin-dependent protein kinase type IV (CAMK4, Homo sapiens, UniProt Q16566)).
For Vascular endothelial growth factor receptor 2 (KDR, Homo sapiens, UniProt P35968): remaining activity read 28.2%.
Mitogen-activated protein kinase 14 (MAPK14, Homo sapiens, UniProt Q16539) — remaining activity: 128%.
It gave 96.9% for remaining activity (Misshapen-like kinase 1 (MINK1, Homo sapiens, UniProt Q8N4C8)).
The remaining activity was 107% (MAP/microtubule affinity-regulating kinase 4 (MARK4, Homo sapiens, UniProt Q96L34)).
For Myosin-IIIb (MYO3B, Homo sapiens, UniProt Q8WXR4): remaining activity read 82%.
For Rho-associated protein kinase 1 (ROCK1, Homo sapiens, UniProt Q13464): remaining activity read 98.4%.

Sample 4
Cell line: mouse MPNST tumor cells
Technique: high-content nuclear imaging
Item: cell number
Concentration: 10 µM
Time: 12 h
Notes: mean of 2 replicates
Relative to: plate mean
Reading: higher = more cells
For c1ccc(C(O[C@@H]2CCCN(CCc3ccc4c(c3)OCO4)C2)c2ccccc2)cc1, the nuclei count was 1.52 z-score.
OC[C@H](Cc1ccccc1)Nc1nc(Oc2ccc3c(c2)CCC3)nc2c1ncn2Cc1ccc(-c2ccccc2)cc1 has a nuclei count of 3.61 z-score.
The nuclei count of Cn1cc(CCn2cnc(-c3cnn(C)c3)c2-c2ccc(C#N)cc2)cn1 is reported as 0.623 z-score and 1.95 z-score.
With O=C(NCc1ccc(C(F)(F)F)cc1)Nc1cccc2cnccc12 the nuclei count was 1.6 z-score.
OCc1ccc(-c2nn(Cc3ccccc3)c3ccccc23)o1 gave a nuclei count of 2.41 z-score.
CC(C)(C)c1cc(C(=O)C=Cc2ccc(C(=O)O)cc2)cc(C(C)(C)C)c1 has a nuclei count of -3.29 z-score.
C[C@]1(C(=O)N(CCCC(=O)O)Cc2cccc(Cl)c2)CCN1C(=O)c1csc2ccccc12 gave a nuclei count of 0.373 z-score.

Some of these lines once more (sample 3):
For Myosin-IIIb (MYO3B, Homo sapiens, UniProt Q8WXR4): remaining activity read 82%.
The remaining activity was 107% (MAP/microtubule affinity-regulating kinase 4 (MARK4, Homo sapiens, UniProt Q96L34)).
